# Assay results pooled from the literature.
# Compare with care: the assays were run in different laboratories. Numbers after ± are the reported error.
# Cnr2: Cannabinoid receptor 2 (Cnr2, Mus musculus, UniProt P47936)
# Sequence of UniProt P47936 (whole entry, looked up): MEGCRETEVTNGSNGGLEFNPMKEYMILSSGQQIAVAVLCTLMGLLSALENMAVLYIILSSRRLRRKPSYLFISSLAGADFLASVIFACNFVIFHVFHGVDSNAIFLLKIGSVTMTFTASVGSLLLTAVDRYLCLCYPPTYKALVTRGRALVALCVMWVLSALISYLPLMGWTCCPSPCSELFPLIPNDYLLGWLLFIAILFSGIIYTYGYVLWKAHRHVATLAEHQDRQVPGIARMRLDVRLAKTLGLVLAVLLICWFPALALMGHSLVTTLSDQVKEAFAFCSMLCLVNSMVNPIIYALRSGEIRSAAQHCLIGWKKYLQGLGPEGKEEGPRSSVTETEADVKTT
# Chymotrypsin-C: Chymotrypsin-C (Homo sapiens, UniProt Q99895)
# Sequence of UniProt Q99895 (whole entry, looked up): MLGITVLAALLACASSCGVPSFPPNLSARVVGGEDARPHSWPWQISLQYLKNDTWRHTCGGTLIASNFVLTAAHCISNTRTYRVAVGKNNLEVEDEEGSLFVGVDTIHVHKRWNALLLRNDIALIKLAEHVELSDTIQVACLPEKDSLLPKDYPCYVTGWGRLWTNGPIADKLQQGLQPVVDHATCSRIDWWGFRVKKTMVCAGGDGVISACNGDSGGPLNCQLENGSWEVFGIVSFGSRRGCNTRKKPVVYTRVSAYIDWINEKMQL
# DRD4: D(4) dopamine receptor (DRD4, Homo sapiens, UniProt P21917)
# Sequence of UniProt P21917 (whole entry, looked up): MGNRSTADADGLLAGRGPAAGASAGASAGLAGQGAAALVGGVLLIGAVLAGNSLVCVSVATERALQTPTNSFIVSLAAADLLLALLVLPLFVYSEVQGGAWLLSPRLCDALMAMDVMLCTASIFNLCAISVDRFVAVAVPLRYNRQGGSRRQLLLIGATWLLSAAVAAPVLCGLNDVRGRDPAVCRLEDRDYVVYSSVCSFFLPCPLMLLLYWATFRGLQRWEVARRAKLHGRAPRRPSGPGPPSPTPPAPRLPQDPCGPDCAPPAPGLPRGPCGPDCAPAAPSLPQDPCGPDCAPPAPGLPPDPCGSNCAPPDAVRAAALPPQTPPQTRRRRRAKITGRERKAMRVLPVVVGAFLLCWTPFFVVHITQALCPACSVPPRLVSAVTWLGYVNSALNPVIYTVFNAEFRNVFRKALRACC
# CA12: Carbonic anhydrase 12 (CA12, Homo sapiens, UniProt O43570)
# Sequence of UniProt O43570 (whole entry, looked up): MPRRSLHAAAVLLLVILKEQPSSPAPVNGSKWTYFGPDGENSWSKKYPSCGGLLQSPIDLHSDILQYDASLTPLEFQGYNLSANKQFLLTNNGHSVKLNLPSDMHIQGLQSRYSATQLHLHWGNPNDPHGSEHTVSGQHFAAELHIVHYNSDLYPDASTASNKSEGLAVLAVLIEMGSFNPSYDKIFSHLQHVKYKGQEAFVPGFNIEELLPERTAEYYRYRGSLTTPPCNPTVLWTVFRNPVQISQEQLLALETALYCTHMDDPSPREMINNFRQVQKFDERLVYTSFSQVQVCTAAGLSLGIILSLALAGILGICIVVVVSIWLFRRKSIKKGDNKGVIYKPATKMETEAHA
# CA2: Carbonic anhydrase 2 (CA2, Homo sapiens, UniProt P00918)
# Sequence of UniProt Q02790 (whole entry, looked up): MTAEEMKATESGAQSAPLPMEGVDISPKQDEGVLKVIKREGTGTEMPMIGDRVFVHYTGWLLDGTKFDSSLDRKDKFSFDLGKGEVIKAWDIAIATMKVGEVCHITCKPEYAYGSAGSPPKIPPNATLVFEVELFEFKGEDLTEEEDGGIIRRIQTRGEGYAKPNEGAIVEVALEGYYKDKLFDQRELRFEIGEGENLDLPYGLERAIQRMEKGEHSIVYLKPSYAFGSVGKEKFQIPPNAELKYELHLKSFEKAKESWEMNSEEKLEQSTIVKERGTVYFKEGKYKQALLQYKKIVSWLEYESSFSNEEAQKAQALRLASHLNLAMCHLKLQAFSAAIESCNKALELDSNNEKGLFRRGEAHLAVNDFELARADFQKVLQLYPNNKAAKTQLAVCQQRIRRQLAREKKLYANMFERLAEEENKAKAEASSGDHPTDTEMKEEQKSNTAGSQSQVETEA
# Sequence of UniProt P41143 (whole entry, unmodified, looked up): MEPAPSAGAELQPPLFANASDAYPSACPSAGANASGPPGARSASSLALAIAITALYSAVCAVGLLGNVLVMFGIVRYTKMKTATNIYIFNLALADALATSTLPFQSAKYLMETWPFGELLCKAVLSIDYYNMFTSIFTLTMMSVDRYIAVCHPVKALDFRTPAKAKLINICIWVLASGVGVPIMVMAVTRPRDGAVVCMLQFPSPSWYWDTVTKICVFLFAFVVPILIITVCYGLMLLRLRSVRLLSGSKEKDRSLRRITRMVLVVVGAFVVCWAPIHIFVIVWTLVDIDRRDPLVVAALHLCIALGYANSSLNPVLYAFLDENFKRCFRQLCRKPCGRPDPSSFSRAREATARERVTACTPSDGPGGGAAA
# Sequence of UniProt P12821 (whole entry, looked up): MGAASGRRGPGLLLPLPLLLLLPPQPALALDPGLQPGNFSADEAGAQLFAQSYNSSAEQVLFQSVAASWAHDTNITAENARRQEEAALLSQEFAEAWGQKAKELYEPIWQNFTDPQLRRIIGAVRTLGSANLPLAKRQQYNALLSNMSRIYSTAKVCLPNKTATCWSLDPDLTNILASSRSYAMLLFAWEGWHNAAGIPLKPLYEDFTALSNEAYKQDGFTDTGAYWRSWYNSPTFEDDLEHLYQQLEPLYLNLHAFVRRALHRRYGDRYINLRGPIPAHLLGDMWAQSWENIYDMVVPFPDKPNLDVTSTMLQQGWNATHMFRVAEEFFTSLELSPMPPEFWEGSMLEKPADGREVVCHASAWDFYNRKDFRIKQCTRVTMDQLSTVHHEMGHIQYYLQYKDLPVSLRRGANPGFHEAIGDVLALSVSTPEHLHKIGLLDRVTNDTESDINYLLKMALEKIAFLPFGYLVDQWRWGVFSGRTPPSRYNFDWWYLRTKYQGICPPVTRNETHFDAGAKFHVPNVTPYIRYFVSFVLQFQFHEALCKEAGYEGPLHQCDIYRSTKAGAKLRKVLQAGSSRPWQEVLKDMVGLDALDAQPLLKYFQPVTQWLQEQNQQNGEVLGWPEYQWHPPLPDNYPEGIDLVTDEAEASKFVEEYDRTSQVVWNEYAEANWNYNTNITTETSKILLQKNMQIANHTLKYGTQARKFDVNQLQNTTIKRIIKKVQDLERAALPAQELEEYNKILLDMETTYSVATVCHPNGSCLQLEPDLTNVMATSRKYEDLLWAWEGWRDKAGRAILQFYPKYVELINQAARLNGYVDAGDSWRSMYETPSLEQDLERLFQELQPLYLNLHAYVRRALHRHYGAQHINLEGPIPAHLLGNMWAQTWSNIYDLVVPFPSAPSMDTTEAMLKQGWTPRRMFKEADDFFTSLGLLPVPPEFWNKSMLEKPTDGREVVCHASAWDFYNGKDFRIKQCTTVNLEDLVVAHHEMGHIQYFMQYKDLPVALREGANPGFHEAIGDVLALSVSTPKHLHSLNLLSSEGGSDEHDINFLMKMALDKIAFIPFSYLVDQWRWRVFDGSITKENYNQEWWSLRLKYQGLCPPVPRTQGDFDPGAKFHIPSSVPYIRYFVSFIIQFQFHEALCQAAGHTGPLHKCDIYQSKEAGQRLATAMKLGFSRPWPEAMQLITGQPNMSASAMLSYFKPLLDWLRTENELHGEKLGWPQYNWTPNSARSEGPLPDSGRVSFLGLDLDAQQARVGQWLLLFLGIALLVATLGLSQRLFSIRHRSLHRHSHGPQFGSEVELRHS
# Sequence of UniProt Q62666 (whole entry, looked up): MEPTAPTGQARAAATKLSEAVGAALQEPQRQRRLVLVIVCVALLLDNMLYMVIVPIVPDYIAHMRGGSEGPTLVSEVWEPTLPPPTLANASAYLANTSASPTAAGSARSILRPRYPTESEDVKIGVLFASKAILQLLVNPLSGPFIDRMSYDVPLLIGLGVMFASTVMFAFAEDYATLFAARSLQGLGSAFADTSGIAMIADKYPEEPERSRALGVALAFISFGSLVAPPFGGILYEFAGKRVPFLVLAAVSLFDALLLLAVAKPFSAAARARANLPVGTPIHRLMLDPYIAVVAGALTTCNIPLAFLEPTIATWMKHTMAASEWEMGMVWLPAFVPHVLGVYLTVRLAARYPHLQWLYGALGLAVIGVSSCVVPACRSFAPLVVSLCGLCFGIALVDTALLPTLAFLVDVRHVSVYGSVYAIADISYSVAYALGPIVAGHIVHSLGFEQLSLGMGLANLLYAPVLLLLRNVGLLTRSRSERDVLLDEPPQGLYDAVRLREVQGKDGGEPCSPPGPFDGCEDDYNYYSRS
# Sequence of UniProt Q13547 (whole entry, looked up): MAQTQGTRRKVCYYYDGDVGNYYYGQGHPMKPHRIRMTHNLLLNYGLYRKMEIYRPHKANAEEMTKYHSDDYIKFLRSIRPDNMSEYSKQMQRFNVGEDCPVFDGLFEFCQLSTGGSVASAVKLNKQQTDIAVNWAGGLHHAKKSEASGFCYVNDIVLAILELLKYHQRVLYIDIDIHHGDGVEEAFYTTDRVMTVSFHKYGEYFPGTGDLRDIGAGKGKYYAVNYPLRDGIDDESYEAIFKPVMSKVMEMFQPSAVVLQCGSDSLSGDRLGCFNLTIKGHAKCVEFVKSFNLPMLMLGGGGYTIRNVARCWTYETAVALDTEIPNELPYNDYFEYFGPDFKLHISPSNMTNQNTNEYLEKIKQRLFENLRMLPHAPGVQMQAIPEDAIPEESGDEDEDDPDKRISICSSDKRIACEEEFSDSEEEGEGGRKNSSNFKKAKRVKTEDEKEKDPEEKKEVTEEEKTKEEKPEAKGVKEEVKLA
# Sequence of UniProt P20248 (whole entry, looked up): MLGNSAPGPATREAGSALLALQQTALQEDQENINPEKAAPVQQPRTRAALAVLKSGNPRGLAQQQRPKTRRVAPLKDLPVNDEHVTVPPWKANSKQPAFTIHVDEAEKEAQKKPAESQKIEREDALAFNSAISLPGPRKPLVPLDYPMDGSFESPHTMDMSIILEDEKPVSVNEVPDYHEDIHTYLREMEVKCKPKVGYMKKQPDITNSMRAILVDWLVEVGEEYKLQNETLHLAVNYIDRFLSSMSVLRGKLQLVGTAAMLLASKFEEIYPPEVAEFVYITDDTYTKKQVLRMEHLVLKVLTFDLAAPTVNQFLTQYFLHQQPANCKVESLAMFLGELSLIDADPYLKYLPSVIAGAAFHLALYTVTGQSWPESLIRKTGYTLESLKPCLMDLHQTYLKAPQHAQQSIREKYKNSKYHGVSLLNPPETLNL
SMILES,target,assay,system,setting,Ki
CCOC(=O)C(CC)(CC)NC(=O)c1ccc(C2CC2)c(Cc2ccc(F)cc2)n1,Cnr2,"ligand displacement, radioligand",,cell membranes,0.0018 µM
CSCC[C@@H]1NC(=O)[C@H](CCSC)NC(=O)[C@H]([C@@H](C)O)NC(=O)[C@@H]2CSSC[C@@H]3NC(=O)[C@H]([C@@H](C)O)NC(=O)[C@H](CC(N)=O)NC(=O)[C@H](CSSC[C@@H](C(=O)N[C@@H](CC(=O)O)C(=O)N[C@@H](CCC(N)=O)C(=O)O)NC(=O)[C@H](CC(C)C)NC1=O)NC(=O)[C@H](CCCCN)NC(=O)[C@H](CC(=O)O)NC(=O)[C@H](CCCCN)NC(=O)[C@H](Cc1ccccc1)NC(=O)[C@H]([C@@H](C)O)NC(=O)[C@H]([C@@H](C)O)NC(=O)CNC(=O)[C@@H]1CCCN1C(=O)[C@H](CCC(=O)O)NC(=O)[C@@H](NC(=O)[C@@H](NC(=O)[C@@H](NC(=O)[C@H](CCC(=O)O)NC(=O)[C@H](CO)NC(=O)CN)C(C)C)[C@@H](C)O)CSSC[C@H](NC(=O)[C@H](CCCNC(=N)N)NC3=O)C(=O)NCC(=O)N[C@@H](CO)C(=O)N[C@@H](CC(=O)O)C(=O)NCC(=O)N[C@@H](CCCCN)C(=O)N[C@@H](CO)C(=O)N[C@@H](C)C(=O)N[C@@H](C)C(=O)N2,Chymotrypsin-C,"enzyme activity, inhibitor",,,0.00045 ± 8e-05 µM
C[C@@H](CN1CCC(Cc2ccccc2)CC1)[C@@H](O)c1ccc(O)cc1,DRD4,cell-free assay,,,0.117 µM
Cc1c(Cl)c(=O)oc2cc(OCCCCCC[Se]C#N)ccc12,CA12,"enzyme activity, inhibitor, stopped-flow",,,0.0904 µM
O=S(=O)(N/N=C/c1ccc(OS(=O)(=O)c2ccc(Cl)cc2)cc1)c1cc(Cl)ccc1Cl,CA2,"enzyme activity, inhibitor, absorbance",,,0.0637 µM
O=C1c2ccccc2CCCN1CCCCN1CCN(c2cccc(Cl)c2Cl)CC1,DRD4,"ligand displacement, radioligand",,,0.009 µM
O=S(=O)(N/N=C/c1ccc(OS(=O)(=O)c2ccccc2)cc1)c1ccc(Cl)cc1,CA2,"enzyme activity, inhibitor, absorbance",,,0.565 µM
CCCCCCCCCCN(O)C(=O)CCCCC[C@@H]1NC(=O)[C@H]2CCCN2C(=O)[C@H](Cc2ccccc2)NC(=O)[C@H](Cc2ccccc2)NC1=O,"Histone deacetylase 1 (HDAC1, Homo sapiens, UniProt Q13547)","enzyme activity, inhibitor, fluorescence",,,0.0029 µM
COc1cc2c(cc1O)C(CCc1ccc(Cl)cc1)N(C)CC2 (stereo not drawn),DRD4,"cell-free assay, radioligand",,,1.3 µM
OC1Cc2ccccc2CC1N1CCC2(C=Cc3ccc(Br)cc32)CC1 (racemic),"Vesicular acetylcholine transporter (Rattus norvegicus, UniProt Q62666)",radioligand binding,PC12 expressing VAChT,added: [3H]vesamicol,0.011 ± 0.001 µM
CC(C)C[C@H](NC(=O)[C@H](CCCNC(=N)N)NC(=O)[C@H](CCCNC(=N)N)NC(=O)[C@H](CCCCN)NC(=O)[C@@H](NC(=O)[C@@H]1CCCN1C(=O)[C@@H]1CCCN1C(=O)[C@H](CCCNC(=N)N)NC(=O)CN)C(C)C)C(=O)N[C@@H](CC(=O)O)C(=O)N[C@@H](CC(C)C)C(=O)N[C@@H](CCC(=O)O)C(=O)N[C@H](C(=O)N[C@@H](CC(=O)O)C(=O)N[C@@H](Cc1c[nH]cn1)C(=O)N[C@@H](CCC(N)=O)C(=O)O)[C@@H](C)O,"Cyclin-A2 (CCNA2, Homo sapiens, UniProt P20248)","probe binding, fluorescence polarization competition",,pH 8.0,3 ± 2 µM
O=S(=O)(N/N=C/c1ccc(OS(=O)(=O)c2ccccc2)cc1)c1cc(Cl)ccc1Cl,CA2,"enzyme activity, inhibitor, absorbance",,,0.0815 µM
NC1CCSC1=O (stereo not drawn),CA2,"CO2 hydration activity, inhibitor, stopped-flow CO2 hydration",,room temperature preincubation,> 100 µM
Cc1cc(O)cc(C)c1C[C@H](N)C(=O)N[C@H](CCCNC(=N)N)C(=O)N[C@@H](Cc1ccccc1)C(=O)N(C)CC(=O)N(C)Cc1cc(C(F)(F)F)cc(C(F)(F)F)c1,"Delta-type opioid receptor (OPRD1, Homo sapiens, UniProt P41143, W274A)",,,,0.00912 ± 0.00321 µM
CC(C)[C@H](NC(=O)[C@@H](N)CCC(=O)O)C(=O)N[C@@H](CC(N)=O)C(=O)N[C@@H](Cc1ccc(O)cc1)C(=O)N[C@@H](CC(=O)O)C(=O)N[C@@H](Cc1ccccc1)C(=O)NCC(=O)NCC(=O)N[C@@H](CCCCN)C(=O)O,"Angiotensin-converting enzyme (ACE, Homo sapiens, UniProt P12821)","enzyme activity, inhibitor, absorbance",,,201 µM
CSCC[C@@H]1NC(=O)[C@H](CC(C)C)NC(=O)[C@H]([C@@H](C)O)NC(=O)[C@@H]2CSSC[C@@H]3NC(=O)[C@H]([C@@H](C)O)NC(=O)[C@H](CC(N)=O)NC(=O)[C@H](CSSC[C@@H](C(=O)N[C@@H](CC(=O)O)C(=O)N[C@@H](CCC(N)=O)C(=O)O)NC(=O)[C@H](CC(C)C)NC1=O)NC(=O)[C@H](CCCCN)NC(=O)[C@H](CC(=O)O)NC(=O)[C@H](CCCCN)NC(=O)[C@H](Cc1ccccc1)NC(=O)[C@H]([C@@H](C)O)NC(=O)[C@H]([C@@H](C)O)NC(=O)CNC(=O)[C@@H]1CCCN1C(=O)[C@H](CCC(=O)O)NC(=O)[C@@H](NC(=O)[C@@H](NC(=O)[C@@H](NC(=O)[C@H](CCC(=O)O)NC(=O)[C@H](CO)NC(=O)CN)C(C)C)[C@@H](C)O)CSSC[C@H](NC(=O)[C@H](CCCNC(=N)N)NC3=O)C(=O)NCC(=O)N[C@@H](CO)C(=O)N[C@@H](CC(=O)O)C(=O)NCC(=O)N[C@@H](CCCCN)C(=O)N[C@@H](CO)C(=O)N[C@@H](C)C(=O)N[C@@H](Cc1ccc(O)cc1)C(=O)N2,Chymotrypsin-C,"enzyme activity, inhibitor",,,0.00026 ± 3e-05 µM
Cn1c(C(C)(C)C)c/c(=N\C(=O)c2cc(C(F)(F)F)ccc2OCC(C)(C)O)n1CC1CCC1,Cnr2,"ligand displacement, radioligand",,,0.00133 µM
CSCC[C@@H]1NC(=O)[C@H](Cc2ccccc2)NC(=O)[C@H]([C@@H](C)O)NC(=O)[C@@H]2CSSC[C@@H]3NC(=O)[C@H]([C@@H](C)O)NC(=O)[C@H](CC(N)=O)NC(=O)[C@H](CSSC[C@@H](C(=O)N[C@@H](CC(=O)O)C(=O)N[C@@H](CCC(N)=O)C(=O)O)NC(=O)[C@H](CC(C)C)NC1=O)NC(=O)[C@H](CCCCN)NC(=O)[C@H](CC(=O)O)NC(=O)[C@H](CCCCN)NC(=O)[C@H](Cc1ccccc1)NC(=O)[C@H]([C@@H](C)O)NC(=O)[C@H]([C@@H](C)O)NC(=O)CNC(=O)[C@@H]1CCCN1C(=O)[C@H](CCC(=O)O)NC(=O)[C@@H](NC(=O)[C@@H](NC(=O)[C@@H](NC(=O)[C@H](CCC(=O)O)NC(=O)[C@H](CO)NC(=O)CN)C(C)C)[C@@H](C)O)CSSC[C@H](NC(=O)[C@H](CCCNC(=N)N)NC3=O)C(=O)NCC(=O)N[C@@H](CO)C(=O)N[C@@H](CC(=O)O)C(=O)NCC(=O)N[C@@H](CCCCN)C(=O)N[C@@H](CO)C(=O)N[C@@H](C)C(=O)N[C@@H](C)C(=O)N2,Chymotrypsin-C,"enzyme activity, inhibitor",,,0.00054 ± 5e-05 µM
O=S(=O)(N/N=C/c1ccc(OS(=O)(=O)c2ccc(Br)cc2)cc1)c1ccc(Cl)cc1,CA2,"enzyme activity, inhibitor, absorbance",,,0.0978 µM
COc1ccc(CC[C@H]2OC(=O)[C@@H]3CCCCN3C(=O)C(=O)C(C)(C)COC(=O)/C=C/CCN(C)C(=O)[C@H](CC(C)C)N(C)C(=O)[C@@H]3CCCN3C(=O)[C@H](Cc3ccccc3)N(C)C(=O)[C@H](c3ccccc3)NC(=O)CCC(=O)Nc3cccc2c3)cc1OC,"Peptidyl-prolyl cis-trans isomerase FKBP4 (FKBP4, Homo sapiens, UniProt Q02790)","enzyme activity, inhibitor",,,0.176 µM
N[C@H]1CCOC1=O,CA12,"CO2 hydration activity, inhibitor, stopped-flow CO2 hydration",,room temperature preincubation,> 100 µM

# Repeated from above:
SMILES,target,assay,system,setting,Ki
OC1Cc2ccccc2CC1N1CCC2(C=Cc3ccc(Br)cc32)CC1 (racemic),"Vesicular acetylcholine transporter (Rattus norvegicus, UniProt Q62666)",radioligand binding,PC12 expressing VAChT,added: [3H]vesamicol,0.011 ± 0.001 µM
CC(C)C[C@H](NC(=O)[C@H](CCCNC(=N)N)NC(=O)[C@H](CCCNC(=N)N)NC(=O)[C@H](CCCCN)NC(=O)[C@@H](NC(=O)[C@@H]1CCCN1C(=O)[C@@H]1CCCN1C(=O)[C@H](CCCNC(=N)N)NC(=O)CN)C(C)C)C(=O)N[C@@H](CC(=O)O)C(=O)N[C@@H](CC(C)C)C(=O)N[C@@H](CCC(=O)O)C(=O)N[C@H](C(=O)N[C@@H](CC(=O)O)C(=O)N[C@@H](Cc1c[nH]cn1)C(=O)N[C@@H](CCC(N)=O)C(=O)O)[C@@H](C)O,"Cyclin-A2 (CCNA2, Homo sapiens, UniProt P20248)","probe binding, fluorescence polarization competition",,pH 8.0,3 ± 2 µM
O=S(=O)(N/N=C/c1ccc(OS(=O)(=O)c2ccccc2)cc1)c1cc(Cl)ccc1Cl,CA2,"enzyme activity, inhibitor, absorbance",,,0.0815 µM
